{"data": "Published values of several laboratories", "note": "Each line is one published result; not all experiments were run side by side. Several values in a cell are separate wells, animals, samples, runs or records. ± marks the error that the study gave."}
{"Structure (SMILES)": "COc1ncc(-c2nc3c(n2C(C)C)[C@H](c2ccc(Cl)cc2)N(c2cc(Cl)cn(C)c2=O)C3=O)c(OC)n1", "test system": "human patients, plasma", "setting": "oral, 50 mg, 0-24 h, high-dose arm, cycle 2 day 1", "endpoint": "AUC(0-t) geometric mean", "value": "7180 ng·h/mL"}
{"Structure (SMILES)": "C[C@@H](Oc1ccc(S(C)(=O)=O)cc1C(=O)N1C[C@@H]2C[C@]2(c2cc(C(F)(F)F)on2)C1)C(F)(F)F", "test system": "human, urine", "setting": "oral, 25 mg, mean", "scale": "baseline: dose", "endpoint": "urinary excretion", "value": "9.4%"}
{"Structure (SMILES)": "CCCCCCOC(=O)NC(=N)c1ccc(NCc2nc3cc(C(=O)N(CCC(=O)OCC)c4ccccn4)ccc3n2C)cc1", "test system": "human", "setting": "oral, 75 mg, compound alone", "endpoint": "participants with TRAEs", "value": "12.5%"}
{"Structure (SMILES)": "O=C(O)CCCOc1ccc([18F])cc1-c1cc(-c2ccccc2C(F)(F)F)n(-c2ccccc2)n1", "test": "gamma counting", "test system": "male ddY mice, muscle", "setting": "intravenous, 2.1 MBq, 60 min", "endpoint": "radioactivity uptake", "value": "1.18 ± 0.27 SUV"}
{"Structure (SMILES)": "CC1(C)CCC(CN2CCN(c3ccc(C(=O)NS(=O)(=O)c4ccc(NCC5CCOCC5)c([N+](=O)[O-])c4)c(Oc4cnc5[nH]ccc5c4)c3)CC2)=C(c2ccc(Cl)cc2)C1", "test system": "FaSSIF", "setting": "literature solubility over dose", "endpoint": "dose-adjusted solubility", "value": "3.37e-07 mL⁻¹"}
{"Structure (SMILES)": "NC(=O)N1c2ccccc2C=Cc2ccccc21", "test system": "healthy human subjects, plasma", "setting": "oral, dose not given, 12 h, twice daily, with glecaprevir and pibrentasvir", "endpoint": "trough concentration", "value": "6070 ng/mL"}
{"Structure (SMILES)": "CC(=O)c1c(C)cc2cc(O)cc(O[C@@H]3O[C@H](CO)[C@@H](O)[C@H](O)[C@H]3O)c2c1O", "tested on": "HK-2 co-cultured with HepaRG", "test": "MTT", "setting": "33.33 µM, 48 h", "scale": "baseline: untreated control", "endpoint": "cell viability", "value": "97.7 ± 10.7%"}
{"Structure (SMILES)": "O=C1Nc2ccc(Cl)cc2[C@@](C#CC2CC2)(C(F)(F)F)O1", "test system": "human, plasma", "setting": "oral, 600 mg, day 28, mean", "endpoint": "trough plasma concentration", "value": "2690 ng/mL"}
{"Structure (SMILES)": "O=C(Nc1ccc(OC(F)(F)Cl)cc1)c1cnc(N2CC[C@@H](O)C2)c(-c2ccn[nH]2)c1", "test": "per laboratory record, item: absolute neutrophil decrease", "test system": "human patients", "setting": "oral, dose not given", "endpoint": "grade ≥3 event rate", "value": "4.3%"}
{"Structure (SMILES)": "Cn1cc(Nc2nccc(-c3ccc4c(c3)CN(C3COC3)CC[C@H]4NC(=O)c3cn(C(C)(C)C)nn3)n2)cn1", "test system": "human, whole blood", "setting": "50 mg twice daily, day 14", "scale": "baseline: pre-dose baseline", "endpoint": "naive B cell count change", "value": "20.7%"}
{"Structure (SMILES)": "O=Cc1cc2c(cc1F)C(=O)N(C1CCC(=O)NC1=O)C2 (stereo not shown)", "test system": "male cynomolgus monkey, plasma", "setting": "oral, 0.3 mg/kg of parent drug", "endpoint": "half-life", "value": "1.4 h"}
{"Structure (SMILES)": "C1CCCC1.C1CCCC1.[Cl][W][Cl]", "test": "cyclic voltammetry", "test system": "acetonitrile", "scale": "baseline: Ag/AgCl", "endpoint": "oxidation peak potential", "value": "0.47 V"}
{"Structure (SMILES)": "O=C(O)CSc1nnc(Br)n1-c1ccc(C2CC2)c2ccccc12", "test system": "KM mouse, chronic hyperuricaemia model", "setting": "dose not given, day 15", "endpoint": "body weight", "value": "28.6 g and 34 g and 28.8 g and 32.8 g and 36.8 g and 33.6 g"}
{"Structure (SMILES)": "COc1ccc2c(=O)n(C)c(-c3ccccc3)nc2c1", "test system": "Sprague-Dawley rat, male, small intestine", "setting": "oral, 30 mg/kg, 4 h", "scale": "baseline: small intestine over plasma", "endpoint": "tissue/plasma ratio", "value": 1830}
{"Structure (SMILES)": "CNC(=O)c1ccc(-c2cnc3ncc(Cc4ccc5ncccc5c4)n3n2)cc1F", "test": "item: Constipation, all grades", "test system": "cancer patients", "setting": "oral, 600 mg twice daily, other expansion cohort, any causality", "endpoint": "patients with adverse event", "value": "11%"}
{"Structure (SMILES)": "COc1cc2c(c(OC)c1OC)C(=O)c1c(cc(C)c(O)c1OC)C2=O", "tested on": "HK-2 co-cultured with HepaRG", "test": "MTT", "setting": "133.33 µM, 24 h", "scale": "baseline: untreated control", "endpoint": "viability", "value": "59.5 ± 2.46%"}
{"Structure (SMILES)": "CC(C)(C(=O)N1CCOc2c(C#N)cncc2C1)C(F)F", "test system": "human, both sexes", "setting": "oral, 40 mg single dose", "endpoint": "subjects with presyncope TEAE", "value": "0%"}
{"Structure (SMILES)": "Cc1cc(Nc2ncnc3ccc(NC4=NC(C)(C)CO4)cc23)ccc1Oc1ccn2ncnc2c1", "test system": "human, plasma", "setting": "oral, 300 mg, day 1, single dose alone", "endpoint": "AUC(0-last), geometric mean", "value": "2000 ng·h/mL"}
{"Structure (SMILES)": "CN1C[C@H](COc2nccc3c(NCc4ccco4)cc(Cl)nc23)OC1=O", "test system": "rat Crl:CD(SD) male", "setting": "oral, 300 mg/kg, single dose", "endpoint": "adverse necropsy findings", "value": "negative"}
{"note": "Repeated from above:"}
{"Structure (SMILES)": "O=C(Nc1ccc(OC(F)(F)Cl)cc1)c1cnc(N2CC[C@@H](O)C2)c(-c2ccn[nH]2)c1", "test": "per laboratory record, item: absolute neutrophil decrease", "test system": "human patients", "setting": "oral, dose not given", "endpoint": "grade ≥3 event rate", "value": "4.3%"}
{"Structure (SMILES)": "C1CCCC1.C1CCCC1.[Cl][W][Cl]", "test": "cyclic voltammetry", "test system": "acetonitrile", "scale": "baseline: Ag/AgCl", "endpoint": "oxidation peak potential", "value": "0.47 V"}
